Published values gathered from unrelated publications.
Compare with care: the assays were run in different laboratories. “And” joins repeats or separate records; there may be more than shown.
Target: Serine/threonine-protein kinase tousled-like 1 (TLK1, Homo sapiens, UniProt Q9UKI8)
Sequence (Q9UKI8 1-766, as in one of the studies): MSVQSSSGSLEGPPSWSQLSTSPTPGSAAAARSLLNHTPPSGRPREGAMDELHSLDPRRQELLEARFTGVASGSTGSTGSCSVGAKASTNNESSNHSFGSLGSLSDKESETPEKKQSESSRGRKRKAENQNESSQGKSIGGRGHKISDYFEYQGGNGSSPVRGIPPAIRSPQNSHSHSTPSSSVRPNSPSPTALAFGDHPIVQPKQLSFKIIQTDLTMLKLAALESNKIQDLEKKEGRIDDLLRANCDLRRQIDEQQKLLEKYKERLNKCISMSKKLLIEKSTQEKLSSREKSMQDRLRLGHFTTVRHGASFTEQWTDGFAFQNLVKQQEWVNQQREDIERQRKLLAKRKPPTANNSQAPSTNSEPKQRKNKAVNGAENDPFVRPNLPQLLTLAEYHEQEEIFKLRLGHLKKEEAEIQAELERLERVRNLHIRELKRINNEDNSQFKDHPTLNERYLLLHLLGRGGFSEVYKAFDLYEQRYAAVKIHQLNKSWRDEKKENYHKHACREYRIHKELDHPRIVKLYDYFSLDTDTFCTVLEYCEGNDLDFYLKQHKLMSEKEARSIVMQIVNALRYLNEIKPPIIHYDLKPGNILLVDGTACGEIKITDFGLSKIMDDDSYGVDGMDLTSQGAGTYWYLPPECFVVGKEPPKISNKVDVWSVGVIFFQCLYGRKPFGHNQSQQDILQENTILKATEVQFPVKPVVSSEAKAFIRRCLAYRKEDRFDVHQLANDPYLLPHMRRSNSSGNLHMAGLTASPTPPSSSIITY

CCN1CCN(Cc2ccc(C(=O)Nc3ccc(C)c(NCc4cnc5[nH]ccc5c4OC)c3)cc2C(F)(F)F)CC1  remaining binding (binding, competition with immobilised ligand; 1 µM): 94%
Cc1ccc(C(=O)Nc2ccc(CN3CCN(C)CC3)c(C(F)(F)F)c2)cc1C#Cc1cnc2cccnn12  upper asymptote (target engagement, NanoBRET; human cells): 218
O=C(Cc1ccc(OCc2ccccc2)cc1)NC1(C(=O)O)CCN(C(=O)c2ccc(-c3cccc(Cl)c3)cc2)CC1  activity vs control (enzyme activity, inhibitor; 10 µM): 99%
CNC(=O)C[C@H](Cc1ccc(C#N)cc1)NC(=O)c1cc(-c2ccc(CN[C@H](C)c3ccc(C)cc3)o2)ccc1Cl  activity vs control (enzyme activity, inhibitor; 1 µM): 95%
C=CC(=O)N1CCCC(n2c(=O)c3ncccc3n(Cc3ccc(Oc4ccccc4)cc3)c2=O)C1 (stereo not shown)  remaining binding (cell-free assay, competition with immobilised ligand; 1 µM): 95%
NC(=O)C[C@H]1CCc2sc3ncnc(O[C@H]4CC[C@H](N5CCOCC5)CC4)c3c21  inhibition (enzyme activity, inhibitor; 10 µM): -3%
Cc1cnc2nc1Nc1cccc(c1)COC/C=C/COCc1cc(ccc1OCCN1CCOCC1)N2  remaining binding (binding, competition with immobilised ligand; 0.1 µM): 98%
CCn1cc(C(=O)O)c(=O)c2c(N)c(F)c(NC3CCCCC3)cc21  inhibition (kinase activity; 0.1 µM, with: ATP at Km): -9.7%
CC(C)=CC1OC(C)(C)C2C=C3C(=O)C(Cl)=CC(O)C3C3C(O)C4OC4C(=O)C132 (stereo not shown)  remaining binding (cell-free assay, competition with immobilised ligand; 10 µM): 75%
CNC(=O)C1CCN(c2cc(C)c(F)cc2NC(=O)c2ccc(-c3cc(O)ccc3C)c(C)c2)CC1  remaining binding (binding, competition with immobilised ligand; 1 µM): 76%
N[C@H]1CC[C@H](Nc2nccc(-c3cccnc3Oc3ccc(NC(=O)NC4CC4)c4ccccc34)n2)CC1  log2 LFQ intensity (kinobead competition pulldown; HEK293/HCT116 lysate mixture; 10 µM, 1 h, 4 °C; lower = stronger competition): 18.9 and 21.1 and 18.4 and 19.7
COc1cc(Nc2nccc(-c3cnn4nc(OC)ccc34)n2)cc(C(F)(F)F)c1  remaining binding (binding, competition with immobilised ligand; 1 µM): 90%
Cc1ccc(-c2c(/C=C(\C#N)C(=O)NC(C)C)n(CCCO)c3ncnc(N)c23)cc1  remaining binding (cell-free assay, competition with immobilised ligand; 1 µM): 97%

Excerpt of the above:
CCn1cc(C(=O)O)c(=O)c2c(N)c(F)c(NC3CCCCC3)cc21  inhibition (kinase activity; 0.1 µM, with: ATP at Km): -9.7%
